# Literature values that unrelated publications cite.
# Each numbered part shows a few of the values that one paper quotes.

# Sample 1
# Target: dopamine transporter
SMILES,IC50 [µM]
Cn1c(=O)c2c(ncn2C)n(C)c1=O,> 10
CC[C@H]1OC(=O)[C@H](C)[C@@H](O[C@H]2C[C@@](C)(OC)[C@@H](O)[C@H](C)O2)[C@H](C)[C@@H](O[C@@H]2O[C@H](C)C[C@H](N(C)C)[C@H]2O)[C@](C)(O)C[C@@H](C)CN(C)[C@H](C)[C@@H](O)[C@]1(C)O,> 10
NC(=O)N1c2ccccc2C=Cc2ccccc21,> 10
Nc1ccn([C@@H]2CS[C@H](CO)O2)c(=O)n1,> 10

# Sample 2
# SMILES: CN(C)CC/C=C1/c2ccccc2Sc2ccc(Cl)cc21
# Cell line: MCF7
# Tested at: concentration not given
assay,setting,how to read,fold change
"microarray, Connectivity Map, measured: MAFF mRNA",6 h,reference: DMSO,7.83
"microarray, measured: CALHM2 mRNA (probe 57715_at)",,reference: vehicle (DMSO),1.54
"microarray, measured: SQSTM1 mRNA",,reference: DMSO,1.32
"microarray, Connectivity Map, measured: BHLHE40 mRNA",6 h,reference: DMSO,4.22

# Sample 3
# Organism: Cryptosporidium parvum
# Technique: high-throughput screen
# Tested at: concentration not given
SMILES,activity
CN1[C@@H]2CC[C@H]1C[C@@H](OC(=O)C(CO)c1ccccc1)C2 (some centres unmarked),inactive
CC(=O)Oc1ccccc1C(=O)Nc1ncc([N+](=O)[O-])s1,inactive
CCCCc1oc2ccccc2c1C(=O)c1cc(I)c(OCCN(CC)CC)c(I)c1,inactive
Cc1nnc(SCC2=C(C(=O)O)N3C(=O)[C@@H](NC(=O)Cn4cnnn4)[C@H]3SC2)s1,inactive
C[N+]1(C)CCCC(OC(=O)C(O)(c2ccccc2)c2ccccc2)C1 (centres unmarked),inactive
CC(=O)[C@H]1CC[C@H]2[C@@H]3CCC4=CC(=O)CC[C@]4(C)[C@H]3CC[C@]12C,inactive
O=C(O)CCNC(=O)c1ccc(/N=N/c2ccc(O)c(C(=O)O)c2)cc1,inactive
O=C1C(CC[S+]([O-])c2ccccc2)C(=O)N(c2ccccc2)N1c1ccccc1 (centres unmarked),inactive
Cc1ccc(N(CC2=NCCN2)c2cccc(O)c2)cc1,inactive
Cc1sc(N)c(C(=O)c2cccc(C(F)(F)F)c2)c1C,inactive
O=C1N[C@H](C(=O)O)CS1,inactive
NC(=O)c1ncn([C@@H]2O[C@H](CO)[C@@H](O)[C@H]2O)n1,inactive
NC(=O)c1cnccn1,inactive
COCCOC(=O)C1=C(C)NC(C)=C(C(=O)OC(C)C)C1c1cccc([N+](=O)[O-])c1 (centres unmarked),inactive
NS(=O)(=O)Cc1noc2ccccc12,inactive
NC1CCN(c2nc3c(cc2F)c(=O)c(C(=O)O)cn3-c2ccc(F)cc2F)C1 (centres unmarked),inactive
Oc1ccc(/C=C/c2cc(O)cc(O)c2)cc1,inactive
CCCOc1ccc(C(=O)OCCN(CC)CC)cc1N,inactive
CCOC(=O)C1=C(COCCN)NC(C)=C(C(=O)OC)C1c1ccccc1Cl (centres unmarked),inactive
Cc1cccc(Nc2ccncc2S(=O)(=O)NC(=O)NC(C)C)c1,inactive
CCN1CC(CCN2CCOCC2)C(c2ccccc2)(c2ccccc2)C1=O.Cl (centres unmarked),inactive
NS(=O)(=O)c1cc2c(cc1C(F)(F)F)NCNS2(=O)=O,inactive
CNNCc1ccc(C(=O)NC(C)C)cc1,inactive
S=c1[nH]cnc2nc[nH]c12,inactive
O=C(c1ccc(F)cc1)C1CCN(CCn2c(=S)[nH]c3ccccc3c2=O)CC1,inactive

# Sample 4
# Technique: PAMPA
Structure (SMILES),log permeability (Pe)
CCCC(=O)NCCCCCC(=O)N[C@H](C(=O)N1C[C@H](O)C[C@H]1C(=O)NCc1ccc(-c2scnc2C)cc1)C(C)(C)C,-7
COCC(=O)OCCCCCC(=O)N[C@H](C(=O)N1C[C@H](O)C[C@H]1C(=O)NCc1ccc(-c2scnc2C)cc1)C(C)(C)C,-6.15
Cc1ncsc1-c1ccc(CNC(=O)[C@@H]2C[C@@H](O)CN2C(=O)[C@@H](NC(=O)CCCCCNC(=O)C2CCCCC2)C(C)(C)C)cc1,-5.96

# Single results of other studies
# DDR1: Epithelial discoidin domain-containing receptor 1 (DDR1, Homo sapiens, UniProt Q08345)
# Sequence of UniProt Q08345 (whole entry, looked up): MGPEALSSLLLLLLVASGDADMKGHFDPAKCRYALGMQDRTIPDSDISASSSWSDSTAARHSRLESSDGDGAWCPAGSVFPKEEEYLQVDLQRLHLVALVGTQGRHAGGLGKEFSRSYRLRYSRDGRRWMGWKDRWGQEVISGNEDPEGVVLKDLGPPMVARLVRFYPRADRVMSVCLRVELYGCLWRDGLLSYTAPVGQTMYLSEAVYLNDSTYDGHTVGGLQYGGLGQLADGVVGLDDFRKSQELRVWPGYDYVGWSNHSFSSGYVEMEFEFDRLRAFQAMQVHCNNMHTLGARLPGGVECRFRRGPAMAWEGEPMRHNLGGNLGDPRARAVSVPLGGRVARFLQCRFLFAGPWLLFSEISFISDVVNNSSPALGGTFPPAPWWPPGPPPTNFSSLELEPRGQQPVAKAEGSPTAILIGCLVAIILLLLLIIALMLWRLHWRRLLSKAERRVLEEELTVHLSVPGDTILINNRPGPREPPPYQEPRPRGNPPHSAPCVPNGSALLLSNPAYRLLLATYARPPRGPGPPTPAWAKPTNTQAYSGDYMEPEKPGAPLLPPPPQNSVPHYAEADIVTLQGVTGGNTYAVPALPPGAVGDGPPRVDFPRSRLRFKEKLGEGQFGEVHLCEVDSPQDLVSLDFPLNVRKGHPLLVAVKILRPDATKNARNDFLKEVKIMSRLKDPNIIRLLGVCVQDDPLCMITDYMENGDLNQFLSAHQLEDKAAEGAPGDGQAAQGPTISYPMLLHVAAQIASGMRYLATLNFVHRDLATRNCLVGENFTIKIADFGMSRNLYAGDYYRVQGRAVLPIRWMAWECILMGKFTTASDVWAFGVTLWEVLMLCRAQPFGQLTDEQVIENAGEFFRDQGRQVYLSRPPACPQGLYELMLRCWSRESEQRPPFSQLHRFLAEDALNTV
SMILES,target or system,assay,test system,setting,quantity,value
O=C(N1CCS(=O)(=O)CC1)N1C[C@H](c2ccc(OC(F)(F)F)cc2)C[C@H](c2nc(C3CC3)no2)C1,F2R,biochemical activity,,,IC50,0.056 µM
Cc1cc(C)c(-n2ccn3nc(-c4cccnc4)cc23)cc1NC(=O)c1cc(C#N)cc(S(F)(F)(F)(F)F)c1,DDR1,"target binding, NanoBRET",,,IC50,0.0015 µM
CCCC(CCC)C(=O)O,human neural embryonic cells,cell viability,,unbound medium concentration,EC10,215 µM
O=C(O)/C(=C/c1c(C(=O)O)[nH]c2cc(Cl)cc(Cl)c12)c1ccccc1,"Grin1 (Rattus norvegicus, UniProt P35439)",binding,,,Ki,0.021 µM
CCN1CCN(Cc2ccc(C(=O)Nc3ccc(C)c(Oc4ccc5c(c4)CC(=O)N5)c3)cc2C(F)(F)F)CC1,U2OS,"collagen-induced autophosphorylation, inhibitor",,,EC50,0.086 µM
O=C(O)C1=CCCN(CCON=C(c2ccccc2)c2ccccc2)C1,"Slc6a1 (Rattus norvegicus, UniProt P23978)",binding,,,Ki,0.2 µM
Cn1cncc1[C@](O)(COc1ccc(C#N)cc1-c1ccc(OC(F)(F)F)cc1)c1ccc(C#N)cc1,FNTB,cellular activity,,,IC50,0.00073 µM
Cn1cnc2c(F)c(Nc3ccc(Br)cc3Cl)c(C(=O)NOCCO)cc21,,,healthy human volunteers,"oral, 25 mg single dose",Cmax,409 ng/mL
O=C1NC(=O)C(c2cn(-c3ccccc3)nc2-c2ccc(F)cc2)N1 (centres unmarked),BCR-ABL1,ABL1 kinase activity,,,EC50,1.14 µM
CCCC(C)(C)C(=O)O,HDAC,"enzyme activity, inhibitor",,"day 10, unbound medium concentration",EC10,3050 µM
Cc1c[nH]c2nccc(Oc3c(F)cc(Nc4cc(Cl)nc(N)n4)cc3F)c12,dopamine transporter,radioligand binding,,,IC50,0.4 µM
Cc1cc2c(C(N)=O)c(N)n(-c3c(C)ccc(O)c3C)c2nc1C,,,"HCC1569 xenograft, mouse",15 mg/kg,tumour growth inhibition,79%
Cc1ccc(C(=O)Nc2cccc(C(F)(F)F)c2)cc1Nc1cncc(C(N)=O)c1,DDR1,"enzyme activity, radiometric",,,IC50,0.019 µM
CCCOc1ccc([C@H]2[C@H](C(=O)O)[C@@H](c3ccc4c(c3)OCO4)CN2CC(=O)Nc2c(CC)cccc2CC)cc1,EDNRB,biochemical,,,IC50,0.0045 µM

# For quick reference, copied from above (sample 3):
SMILES,activity
NC(=O)c1cnccn1,inactive
COCCOC(=O)C1=C(C)NC(C)=C(C(=O)OC(C)C)C1c1cccc([N+](=O)[O-])c1 (centres unmarked),inactive
NS(=O)(=O)Cc1noc2ccccc12,inactive
NC1CCN(c2nc3c(cc2F)c(=O)c(C(=O)O)cn3-c2ccc(F)cc2F)C1 (centres unmarked),inactive
Oc1ccc(/C=C/c2cc(O)cc(O)c2)cc1,inactive
